{"data": "Experimental data gathered from unrelated publications", "note": "Every numbered part comes from another study and shows a few of its results, in no order."}
{"data": "Set 1", "target": "FOXO3, forkhead domain (mouse, UniProt Q9WVH4, residues 31-263)", "method": "protein-binding microarray", "molecule type": "hairpin DNA", "medium": "in vitro", "tested at": "not given", "setting": "whole hairpin DNA, median over replicate spots", "baseline": "not given", "direction": "higher = stronger binding", "UniProt Q9WVH4, sequence (31-263, looked up)": "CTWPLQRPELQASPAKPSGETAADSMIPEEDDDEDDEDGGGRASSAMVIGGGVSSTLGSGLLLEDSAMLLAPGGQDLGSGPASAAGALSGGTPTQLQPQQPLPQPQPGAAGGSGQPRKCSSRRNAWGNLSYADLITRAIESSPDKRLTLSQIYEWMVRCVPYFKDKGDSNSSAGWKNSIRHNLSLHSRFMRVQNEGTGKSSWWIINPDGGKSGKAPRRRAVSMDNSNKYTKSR"}
{"Oligonucleotide": "GAGGCCATGCAAACACGGCCTCCTGGCCGTGTTTGCATGGCCTCACACTC (5mC at 28)", "median fluorescence": "4680 a.u."}
{"Oligonucleotide": "GAGGCCCGGTAACCAACGCCTCCTGGCGTTGGTTACCGGGCCTCACACTC (5mC at 37)", "median fluorescence": "4540 a.u."}
{"Oligonucleotide": "GAGGCCATGCAACGAACGCCTCCTGGCGTTCGTTGCATGGCCTCACACTC (5mC at 13 31)", "median fluorescence": "4540 a.u."}
{"Oligonucleotide": "GAGGCCACGCAAACAACGCCTCCTGGCGTTGTTTGCGTGGCCTCACACTC", "median fluorescence": "5790 a.u."}
{"Oligonucleotide": "GAGGCCATGCAAATAACGCCTCCTGGCGTTATTTGCATGGCCTCACACTC", "median fluorescence": "4110 a.u."}
{"Oligonucleotide": "GAGGCCATCGAACCAACGCCTCCTGGCGTTGGTTCGATGGCCTCACACTC (5mC at 9)", "median fluorescence": "4270 a.u."}
{"Oligonucleotide": "GAGGCCATGTAACGAACGCCTCCTGGCGTTCGTTACATGGCCTCACACTC (5mC at 31)", "median fluorescence": "3990 a.u."}
{"Oligonucleotide": "GAGGCCATGGAAACAACGCCTCCTGGCGTTGTTTCCATGGCCTCACACTC (5mC at 35)", "median fluorescence": "4340 a.u."}
{"Oligonucleotide": "GAGGCCATGTAGCCAACGCCTCCTGGCGTTGGCTACATGGCCTCACACTC (5mC at 33)", "median fluorescence": "4250 a.u."}
{"Oligonucleotide": "GAGGCCATGTAAAGAACGCCTCCTGGCGTTCTTTACATGGCCTCACACTC", "median fluorescence": "3550 a.u."}
{"Oligonucleotide": "GAGGCCATGTCGCCAACGCCTCCTGGCGTTGGCGACATGGCCTCACACTC (5mC at 11)", "median fluorescence": "4490 a.u."}
{"Oligonucleotide": "GAGGCCATGTACGCAACGCCTCCTGGCGTTGCGTACATGGCCTCACACTC (5mC at 12)", "median fluorescence": "4310 a.u."}
{"Oligonucleotide": "GAGGCCACGTAAACAACGCCTCCTGGCGTTGTTTACGTGGCCTCACACTC (5mC at 8 36)", "median fluorescence": "5020 a.u."}
{"Oligonucleotide": "GAGGCCGTGTAACCAACGCCTCCTGGCGTTGGTTACACGGCCTCACACTC", "median fluorescence": "4500 a.u."}
{"Oligonucleotide": "GAGGCCATGTATACAACGCCTCCTGGCGTTGTATACATGGCCTCACACTC", "median fluorescence": "4040 a.u."}
{"Oligonucleotide": "GAGGCCATGTAAACAACGCCTCCTGGCGTTGTTTACATGGCCTCACACTC (5mC at 14)", "median fluorescence": "5210 a.u."}
{"Oligonucleotide": "GAGGCCATGCGACCAACGCCTCCTGGCGTTGGTCGCATGGCCTCACACTC (5mC at 10 34)", "median fluorescence": "4570 a.u."}
{"Oligonucleotide": "GAGGCCATGTACACAACGCCTCCTGGCGTTGTGTACATGGCCTCACACTC", "median fluorescence": "4640 a.u."}
{"Oligonucleotide": "GAGGCCGTGTAACCAACGCCTCCTGGCGTTGGTTACACGGCCTCACACTC (5mC at 38)", "median fluorescence": "4200 a.u."}
{"data": "Set 2", "target": "RNA binding protein fox-1 homolog 2, RRM domain, GST-SBP tag (RBFOX2, Homo sapiens, UniProt O43251-10, residues 100-194)", "method": "RNA Bind-n-Seq", "molecule type": "RNA", "medium": "in vitro", "tested at": "365 nM", "setting": "natural RNA segment, single round, ends assumed", "baseline": "no-protein control", "direction": "higher = stronger binding", "shared flanks, not repeated": "GGGAGUUCUACAGUCCGACGAUC … UGGAAUUCUCGGGUGCCAA", "Target sequence (chain)": "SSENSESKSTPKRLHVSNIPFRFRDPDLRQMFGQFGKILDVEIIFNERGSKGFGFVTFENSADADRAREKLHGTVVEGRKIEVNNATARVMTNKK"}
{"Oligonucleotide": "UCUGCCCCUGGGUCCAUGUAUCCACCUAGCUCUGGUACCCUCCAGAGGUGCCAUCUCUACCUCUGACACAGCCUGUCUGCCUUGAGACUGAGGAAGGCACAGGCAAGCAA", "RBNS enrichment (R)": 0.59}
{"Oligonucleotide": "CAGCUUACAUCUGGUCACCCCAUCUGAUUCCUGCCACACAGACUCCAUCGGUUUCCUCCAGGGCAGCGCCCCACUUCGCCCCUUCCGCAGUGGAGAAGGGCAGCCAAGUU", "RBNS enrichment (R)": 0.318}
{"Oligonucleotide": "CCAGAUGCCUGAUCAGAUGAGAAGCCCGCCAUGAUACUGUCACAGUGCCUAGAAUGGGCUCUUUAUCCAGUAGACACCACUGUACUUUUUGAUACGAGGGCAGUCUUAAC", "RBNS enrichment (R)": 0.373}
{"Oligonucleotide": "CCAGGCCGUCUCUUGCUCCCUAAUUCAUUUCCCAGGAAGCUGUGAUACAGGGUGAAAUAAAGUCUUGUCUUAGAAACCAGGACCCUAAACCCCACACUAUGUAAUAGAAA", "RBNS enrichment (R)": 0.345}
{"Oligonucleotide": "AAAAUACAAGCUAGUGCUUUGUCUUAGUAGUUUUAAGAAAUUAAAGCAAACAAAUUUAAGUUUUCUUGUAUUGAAAAUAACCUAUGAUUGUAUGUUUUGCAUUCCUAGAA", "RBNS enrichment (R)": 0.434}
{"Oligonucleotide": "GGAAAAUGAAGCUCGGGCUGGUUAACUGCUUGCUCAGCGUCCCAUGGCCUAGCCGCCCGUGACUCUCACACUGUCUCCUGCAUGACGGGUGGCGCCUCCCGCAGCUUCCC", "RBNS enrichment (R)": 11.6}
{"Oligonucleotide": "CAGGAGUGCCAAAGGACACUAUGAACUUUUUGAACUGACAGUUUCUCCUAACUUUCUGCUUUAGCGUAAUUGCUCAGAGUAGAGAGCCCCCACAAAGUUAUUUAAAAGAU", "RBNS enrichment (R)": 0.439}
{"Oligonucleotide": "UGCAGGGCCUGGCAGAUGCACCACGGGCUCACCAGCAGCGUUUACCCACGCUGUGCUUCUCUGCUUGCAUUUCCAGGGAGACCGUGUUUUGAACCGCAUCACCUUUCCUU", "RBNS enrichment (R)": 1.14}
{"data": "Set 3", "target": "Histone acetyltransferase KAT6A, winged helix 2, GST fusion (KAT6A, Homo sapiens, UniProt Q92794, residues 85-181)", "method": "protein binding microarray", "molecule type": "double-stranded DNA, one strand shown", "medium": "in vitro", "tested at": "not given", "setting": "8-mer, flanks averaged, mean of 2 arrays, mostly near background", "baseline": "not given", "direction": "higher = stronger binding", "Residues (chain)": "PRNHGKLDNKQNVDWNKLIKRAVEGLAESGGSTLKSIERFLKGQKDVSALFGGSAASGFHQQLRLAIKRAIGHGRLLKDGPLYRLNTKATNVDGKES"}
{"Oligonucleotide": "GTAGAGAC", "E-score": 0.0382}
{"Oligonucleotide": "ACCCAAAC", "E-score": 0.0968}
{"Oligonucleotide": "ACTTTCAC", "E-score": -0.0666}
{"Oligonucleotide": "AGGTCCGG", "E-score": 0.188}
{"Oligonucleotide": "TACCGGAA", "E-score": 0.00035}
{"Oligonucleotide": "ACGGGTAA", "E-score": -0.0625}
{"Oligonucleotide": "CGAAGGAC", "E-score": -0.0125}
{"Oligonucleotide": "AGGAGGGG", "E-score": 0.207}
{"Oligonucleotide": "CGGACGTA", "E-score": -0.25}
{"Oligonucleotide": "CGCTCGGA", "E-score": 0.0822}
{"Oligonucleotide": "CAGATAAG", "E-score": 0.00907}
{"Oligonucleotide": "CAGCTTAA", "E-score": 0.061}
{"Oligonucleotide": "GATGTATA", "E-score": 0.0473}
{"Oligonucleotide": "ATACCATG", "E-score": -0.11}
{"Oligonucleotide": "GAACAGAC", "E-score": 0.107}
{"Oligonucleotide": "GCGACTTA", "E-score": -0.126}
{"Oligonucleotide": "AGACGAAG", "E-score": 0.0896}
{"Oligonucleotide": "AAAGAGTA", "E-score": -0.11}
{"Oligonucleotide": "AGGACCTA", "E-score": 0.0415}
{"Oligonucleotide": "AACAATAT", "E-score": 0.186}
{"Oligonucleotide": "GAAGTATC", "E-score": 0.0565}
{"data": "Set 4", "target": "Sal-like protein 4, full length isoform A (SALL4, Homo sapiens, UniProt Q9UJQ4, residues 1-1053)", "method": "universal PBM", "molecule type": "double-stranded DNA, one strand shown", "medium": "in vitro", "tested at": "600 nM", "setting": "8-mer, flanks averaged, mean of replicates", "direction": "higher = stronger binding", "UniProt Q9UJQ4, sequence (whole entry, looked up)": "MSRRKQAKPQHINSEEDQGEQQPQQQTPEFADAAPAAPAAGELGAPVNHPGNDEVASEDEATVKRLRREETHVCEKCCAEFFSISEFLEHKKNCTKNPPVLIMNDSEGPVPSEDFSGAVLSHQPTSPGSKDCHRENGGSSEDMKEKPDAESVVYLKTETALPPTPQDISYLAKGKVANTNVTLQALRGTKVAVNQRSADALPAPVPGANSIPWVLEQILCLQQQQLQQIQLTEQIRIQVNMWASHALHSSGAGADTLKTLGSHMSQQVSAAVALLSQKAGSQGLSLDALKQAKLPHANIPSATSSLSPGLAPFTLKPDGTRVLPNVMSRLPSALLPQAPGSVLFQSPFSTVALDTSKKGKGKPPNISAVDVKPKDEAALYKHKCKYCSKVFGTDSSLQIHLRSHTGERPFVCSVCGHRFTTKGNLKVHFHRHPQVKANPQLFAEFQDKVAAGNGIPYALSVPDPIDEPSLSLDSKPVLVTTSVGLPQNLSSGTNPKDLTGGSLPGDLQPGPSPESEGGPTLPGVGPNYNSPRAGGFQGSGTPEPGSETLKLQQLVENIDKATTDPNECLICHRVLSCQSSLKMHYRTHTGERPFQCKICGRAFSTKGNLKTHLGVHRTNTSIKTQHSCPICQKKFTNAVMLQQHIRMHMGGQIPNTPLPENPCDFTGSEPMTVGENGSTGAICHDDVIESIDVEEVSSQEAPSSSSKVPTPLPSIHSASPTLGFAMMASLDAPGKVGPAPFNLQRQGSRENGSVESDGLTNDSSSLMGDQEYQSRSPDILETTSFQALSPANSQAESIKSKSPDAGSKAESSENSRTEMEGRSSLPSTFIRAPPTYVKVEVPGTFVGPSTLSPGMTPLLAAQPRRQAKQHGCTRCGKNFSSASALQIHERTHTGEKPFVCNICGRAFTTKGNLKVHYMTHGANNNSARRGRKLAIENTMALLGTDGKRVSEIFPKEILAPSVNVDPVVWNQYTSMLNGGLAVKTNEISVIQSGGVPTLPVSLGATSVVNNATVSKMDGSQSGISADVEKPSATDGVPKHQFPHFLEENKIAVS"}
{"Oligonucleotide": "AGTATGAT", "E-score": 0.307}
{"Oligonucleotide": "GGCAACGA", "E-score": -0.123}
{"Oligonucleotide": "AGCGAATG", "E-score": -0.16}
{"Oligonucleotide": "CGCCTAGC", "E-score": -0.248}
{"Oligonucleotide": "ACTACTAA", "E-score": 0.226}
{"Oligonucleotide": "CCATATGC", "E-score": 0.0843}
{"Oligonucleotide": "GAATAAAA", "E-score": 0.227}
{"Oligonucleotide": "AGTCGAAG", "E-score": 0.0222}
{"Oligonucleotide": "ATTCCGGG", "E-score": -0.125}
{"Oligonucleotide": "ACAGATGC", "E-score": 0.0751}
{"Oligonucleotide": "ATGCGATA", "E-score": 0.176}
{"Oligonucleotide": "ATGTGCCA", "E-score": 0.0491}
{"Oligonucleotide": "AGAATCAC", "E-score": -0.0486}
{"Oligonucleotide": "ACGACTGC", "E-score": -0.157}
{"Oligonucleotide": "ACCTCAAG", "E-score": -0.117}
{"Oligonucleotide": "AGGTTAGA", "E-score": -0.0861}
{"Oligonucleotide": "TCCTTTAA", "E-score": 0.0925}
{"note": "For quick reference, copied from above (set 3):"}
{"Oligonucleotide": "ACTTTCAC", "E-score": -0.0666}
{"Oligonucleotide": "AGGTCCGG", "E-score": 0.188}
{"Oligonucleotide": "TACCGGAA", "E-score": 0.00035}
{"Oligonucleotide": "ACGGGTAA", "E-score": -0.0625}
{"Oligonucleotide": "CGAAGGAC", "E-score": -0.0125}
